Measurements of several laboratories.
± gives the spread as reported.
DCLRE1A: DNA cross-link repair 1A protein (DCLRE1A, Homo sapiens, UniProt Q6PJP8)
Sequence of UniProt Q6PJP8 (whole entry, looked up): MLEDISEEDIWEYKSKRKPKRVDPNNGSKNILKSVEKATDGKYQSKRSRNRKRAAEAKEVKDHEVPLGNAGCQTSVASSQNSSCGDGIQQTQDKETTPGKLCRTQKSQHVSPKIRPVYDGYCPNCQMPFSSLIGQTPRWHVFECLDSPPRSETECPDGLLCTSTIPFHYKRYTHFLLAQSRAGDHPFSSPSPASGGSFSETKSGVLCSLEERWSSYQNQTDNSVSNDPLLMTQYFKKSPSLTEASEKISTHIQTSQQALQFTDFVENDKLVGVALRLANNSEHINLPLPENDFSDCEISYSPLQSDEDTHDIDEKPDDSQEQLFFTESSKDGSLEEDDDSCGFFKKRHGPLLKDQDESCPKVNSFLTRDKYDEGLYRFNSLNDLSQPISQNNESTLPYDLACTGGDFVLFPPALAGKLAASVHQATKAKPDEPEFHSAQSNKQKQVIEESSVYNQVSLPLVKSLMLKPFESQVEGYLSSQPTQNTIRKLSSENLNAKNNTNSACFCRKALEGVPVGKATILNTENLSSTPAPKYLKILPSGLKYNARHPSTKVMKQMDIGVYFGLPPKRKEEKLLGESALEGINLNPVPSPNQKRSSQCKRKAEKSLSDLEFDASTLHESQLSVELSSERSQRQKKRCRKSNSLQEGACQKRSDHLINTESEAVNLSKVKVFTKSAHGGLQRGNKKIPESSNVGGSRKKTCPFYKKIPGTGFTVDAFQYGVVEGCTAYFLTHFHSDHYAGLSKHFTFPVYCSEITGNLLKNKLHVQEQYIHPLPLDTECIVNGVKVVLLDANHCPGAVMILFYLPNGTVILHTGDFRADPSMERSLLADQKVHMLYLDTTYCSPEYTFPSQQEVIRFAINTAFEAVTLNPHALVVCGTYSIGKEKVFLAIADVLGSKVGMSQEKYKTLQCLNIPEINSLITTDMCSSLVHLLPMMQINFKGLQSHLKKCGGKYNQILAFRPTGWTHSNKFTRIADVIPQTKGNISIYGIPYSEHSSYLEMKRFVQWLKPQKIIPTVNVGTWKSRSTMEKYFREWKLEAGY
Pik3cb with p85 beta: Phosphatidylinositol 4,5-bisphosphate 3-kinase catalytic subunit beta isoform, with p85 beta (Pik3cb, Mus musculus, UniProt Q8BTI9)
Sequence of UniProt Q8BTI9 (whole entry, looked up): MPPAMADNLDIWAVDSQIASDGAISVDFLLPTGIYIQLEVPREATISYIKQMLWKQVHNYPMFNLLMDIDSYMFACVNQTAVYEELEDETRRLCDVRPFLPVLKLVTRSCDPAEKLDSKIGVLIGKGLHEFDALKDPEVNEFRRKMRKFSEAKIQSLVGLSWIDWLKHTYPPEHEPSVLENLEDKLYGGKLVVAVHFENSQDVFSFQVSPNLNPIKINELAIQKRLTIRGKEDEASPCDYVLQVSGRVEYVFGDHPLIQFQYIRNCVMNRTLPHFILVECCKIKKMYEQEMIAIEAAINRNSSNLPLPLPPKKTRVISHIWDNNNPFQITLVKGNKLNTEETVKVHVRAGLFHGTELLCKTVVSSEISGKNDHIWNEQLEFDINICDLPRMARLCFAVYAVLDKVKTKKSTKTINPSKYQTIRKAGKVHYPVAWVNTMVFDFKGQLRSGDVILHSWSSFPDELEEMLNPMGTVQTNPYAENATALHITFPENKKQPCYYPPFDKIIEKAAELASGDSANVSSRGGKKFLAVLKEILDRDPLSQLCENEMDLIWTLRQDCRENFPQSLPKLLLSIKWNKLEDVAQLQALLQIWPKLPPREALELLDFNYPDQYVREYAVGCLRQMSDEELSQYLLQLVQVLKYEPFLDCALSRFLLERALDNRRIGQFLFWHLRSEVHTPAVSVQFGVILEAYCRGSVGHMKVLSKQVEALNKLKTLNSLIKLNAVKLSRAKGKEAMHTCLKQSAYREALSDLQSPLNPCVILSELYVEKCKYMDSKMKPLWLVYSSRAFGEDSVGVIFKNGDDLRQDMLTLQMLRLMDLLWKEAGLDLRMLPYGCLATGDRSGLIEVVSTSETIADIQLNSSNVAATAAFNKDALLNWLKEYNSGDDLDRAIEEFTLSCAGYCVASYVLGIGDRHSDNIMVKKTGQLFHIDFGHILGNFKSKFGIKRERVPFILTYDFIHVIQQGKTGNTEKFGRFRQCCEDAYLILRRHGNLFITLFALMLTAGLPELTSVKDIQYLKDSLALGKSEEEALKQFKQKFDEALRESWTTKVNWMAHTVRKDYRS
EPHB1: Ephrin type-B receptor 1 (EPHB1, Homo sapiens, UniProt P54762)
Sequence of UniProt P54762 (whole entry, looked up): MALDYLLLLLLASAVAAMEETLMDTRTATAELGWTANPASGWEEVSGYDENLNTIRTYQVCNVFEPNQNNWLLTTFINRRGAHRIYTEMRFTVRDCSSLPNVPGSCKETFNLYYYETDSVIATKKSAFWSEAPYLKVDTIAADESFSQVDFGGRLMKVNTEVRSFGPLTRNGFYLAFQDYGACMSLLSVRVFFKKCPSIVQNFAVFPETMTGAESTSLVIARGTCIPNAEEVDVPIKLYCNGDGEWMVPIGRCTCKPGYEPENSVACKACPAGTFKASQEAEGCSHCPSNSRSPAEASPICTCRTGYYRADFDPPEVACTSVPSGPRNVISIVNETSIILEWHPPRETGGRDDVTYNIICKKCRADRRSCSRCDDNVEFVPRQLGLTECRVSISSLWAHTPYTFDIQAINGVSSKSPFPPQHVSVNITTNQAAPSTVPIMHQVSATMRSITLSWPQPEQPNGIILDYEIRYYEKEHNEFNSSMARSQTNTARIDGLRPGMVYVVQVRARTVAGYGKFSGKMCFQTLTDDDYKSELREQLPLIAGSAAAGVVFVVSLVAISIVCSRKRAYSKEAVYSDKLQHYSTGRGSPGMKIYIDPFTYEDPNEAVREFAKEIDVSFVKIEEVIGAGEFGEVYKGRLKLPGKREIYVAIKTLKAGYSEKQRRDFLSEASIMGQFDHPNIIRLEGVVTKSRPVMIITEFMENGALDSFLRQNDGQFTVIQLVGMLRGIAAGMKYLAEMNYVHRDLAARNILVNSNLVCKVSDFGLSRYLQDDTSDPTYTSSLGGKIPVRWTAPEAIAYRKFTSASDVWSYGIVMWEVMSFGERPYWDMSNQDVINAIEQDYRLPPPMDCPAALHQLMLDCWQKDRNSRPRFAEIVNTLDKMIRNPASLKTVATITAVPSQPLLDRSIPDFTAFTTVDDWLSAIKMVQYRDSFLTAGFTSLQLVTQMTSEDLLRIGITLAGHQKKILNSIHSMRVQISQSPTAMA
STK26: Serine/threonine-protein kinase 26 (STK26, Homo sapiens, UniProt Q9P289)
Sequence of UniProt Q9P289 (whole entry, looked up): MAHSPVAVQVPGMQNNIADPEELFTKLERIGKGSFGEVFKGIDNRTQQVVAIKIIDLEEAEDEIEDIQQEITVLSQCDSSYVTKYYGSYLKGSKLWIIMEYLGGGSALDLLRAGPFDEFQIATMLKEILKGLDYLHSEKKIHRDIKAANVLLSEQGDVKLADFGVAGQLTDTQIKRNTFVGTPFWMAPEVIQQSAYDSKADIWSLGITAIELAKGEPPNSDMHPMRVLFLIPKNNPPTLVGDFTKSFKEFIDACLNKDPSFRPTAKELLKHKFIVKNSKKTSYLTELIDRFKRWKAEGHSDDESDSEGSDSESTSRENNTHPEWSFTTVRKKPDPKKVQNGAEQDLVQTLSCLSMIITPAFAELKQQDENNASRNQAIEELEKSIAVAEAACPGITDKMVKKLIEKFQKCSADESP
MAP3K19: Mitogen-activated protein kinase kinase kinase 19 (MAP3K19, Homo sapiens, UniProt Q56UN5)
Sequence of UniProt Q56UN5 (whole entry, looked up): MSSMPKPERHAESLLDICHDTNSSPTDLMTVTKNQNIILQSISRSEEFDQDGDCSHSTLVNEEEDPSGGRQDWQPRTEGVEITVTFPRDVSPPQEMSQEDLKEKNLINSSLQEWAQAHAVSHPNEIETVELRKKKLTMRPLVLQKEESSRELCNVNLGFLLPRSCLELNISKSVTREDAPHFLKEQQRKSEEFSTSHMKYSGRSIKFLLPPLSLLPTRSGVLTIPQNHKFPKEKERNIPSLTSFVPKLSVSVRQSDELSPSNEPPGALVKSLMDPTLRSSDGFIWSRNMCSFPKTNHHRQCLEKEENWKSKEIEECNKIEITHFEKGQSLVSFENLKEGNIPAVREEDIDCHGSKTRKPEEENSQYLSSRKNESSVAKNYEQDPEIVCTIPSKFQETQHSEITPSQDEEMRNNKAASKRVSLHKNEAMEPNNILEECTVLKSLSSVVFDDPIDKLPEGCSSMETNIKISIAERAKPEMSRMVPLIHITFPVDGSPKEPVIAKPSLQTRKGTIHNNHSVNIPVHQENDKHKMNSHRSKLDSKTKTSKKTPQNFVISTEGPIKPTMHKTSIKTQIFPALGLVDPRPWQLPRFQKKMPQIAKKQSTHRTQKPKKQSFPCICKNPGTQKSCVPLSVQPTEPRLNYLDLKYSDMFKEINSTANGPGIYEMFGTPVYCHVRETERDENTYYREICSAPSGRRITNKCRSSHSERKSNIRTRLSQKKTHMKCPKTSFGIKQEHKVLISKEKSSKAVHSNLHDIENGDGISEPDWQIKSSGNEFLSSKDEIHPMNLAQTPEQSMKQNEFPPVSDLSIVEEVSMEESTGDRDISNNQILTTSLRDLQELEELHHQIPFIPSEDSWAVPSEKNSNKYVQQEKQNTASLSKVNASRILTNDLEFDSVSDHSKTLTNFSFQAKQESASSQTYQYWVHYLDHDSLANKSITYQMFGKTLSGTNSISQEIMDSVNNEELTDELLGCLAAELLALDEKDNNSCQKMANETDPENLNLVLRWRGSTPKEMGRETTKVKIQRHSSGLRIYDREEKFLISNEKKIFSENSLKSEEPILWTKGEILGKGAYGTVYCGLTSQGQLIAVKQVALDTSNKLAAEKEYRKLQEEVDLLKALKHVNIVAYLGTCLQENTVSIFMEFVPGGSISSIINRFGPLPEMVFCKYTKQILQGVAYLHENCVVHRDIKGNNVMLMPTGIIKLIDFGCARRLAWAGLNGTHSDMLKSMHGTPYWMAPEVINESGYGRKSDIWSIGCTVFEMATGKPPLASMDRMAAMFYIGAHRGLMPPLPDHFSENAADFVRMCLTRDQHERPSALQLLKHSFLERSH

| SMILES | target | assay | conditions | how to read | remaining activity |
| --- | --- | --- | --- | --- | --- |
| CC[C@H](NC(=O)[C@H](Cc1cscn1)NC(=O)CCc1ccccc1)C(=O)N[C@@H](CCCNC(=N)N)C(=O)c1nc2ccccc2s1 | Transmembrane protease serine 6 (Homo sapiens, UniProt Q8IU80) | enzyme activity, inhibitor | 100 nM | baseline: vehicle | 14% |
| O=C(O)c1ccc(Nc2ncc3c(n2)-c2ccc(Cl)cc2C(c2c(F)cccc2F)=NC3)cc1 | CHK1(h) | kinase activity | 1 µM |  | 109% |
| O=C1c2cccc(O)c2C(=O)c2c(O)cc(CO)cc21 | DCLRE1A | exonuclease activity, inhibitor, fluorescence HTS | 10 µM, 80 min, together with: 8 nM 5P-FQ substrate | baseline: high and low controls | 50.2% |
| Cc1cc(NC(=O)c2cccc(NC(=O)/C=C/CN(C)C)c2)ccc1Nc1nccc(-c2cccnc2)n1 | Mitogen-activated protein kinase 8 (MAPK8, Homo sapiens, UniProt P45983) | enzyme activity, inhibitor | 0.0007527 µM, 6 h, unit not given, together with: GSH 10 mM pre-incubation | baseline: vehicle | 1.04 |
| COc1cc(F)ccc1-c1ncnc(Nc2cccc(C[S@](C)(=N)=O)c2)n1 | Dual specificity mitogen-activated protein kinase kinase 4 (Map2k4, Mus musculus, UniProt P47809) | kinase activity | 10 µM, together with: 10 µM ATP |  | 107% |
| COc1cc(-c2cncc3c2CN(C)Cc2cc(N4CCNCC4)ccc2-3)cc(OC)c1OC | Pik3cb with p85 beta | kinase activity | 1 µM, p110b/p85b)(m mouse, together with: ATP 10 µM | baseline: DMSO | 90% |
| CNc1ncc2c(/C=C/C(=O)N3CCC(OC)CC3)nn(Cc3cccc(C(F)(F)F)c3)c2n1 | EPHB1 | kinase activity, inhibitor | 1 µM | baseline: untreated control | 104% |
| CC#CC(=O)N1CCC[C@H]1c1nc(-c2ccc(C(=O)Nc3ccccn3)cc2)c2c(N)nccn12 | STK26 | kinase activity, inhibitor, HotSpot radiometric | 100 nM, together with: ATP 10 µM |  | 88.4 ± 1.3% |
| C=CC(=O)N1CCC[C@@H](n2nc(-c3ccc(Oc4ccccc4)cc3)c3c(N)ncnc32)C1 | Myosin light chain kinase, smooth muscle (MYLK, Homo sapiens, UniProt Q15746) |  | 10 µM |  | 52.8% |
| c1cnc2ccc(Nc3nc(NC4CC4)c4nc[nH]c4n3)cc2c1 | cAMP-dependent protein kinase catalytic subunit alpha (PRKACA, Homo sapiens, UniProt P17612) | kinase activity, inhibitor, SelectScreen kinase profiling | 1 µM | baseline: control | 72% |
| Cc1cc(Nc2cc(N3CCN(C)CC3)nc(Sc3ccc(NC(=O)C4CC4)cc3)n2)[nH]n1 | RAC-alpha serine/threonine-protein kinase (AKT1, Homo sapiens, UniProt P31749) | kinase activity, KinaseProfiler | 0.03 µM, species human | baseline: control | 96% |
| COc1cc(Nc2ncc3c(n2)-c2ccc(Cl)cc2C(c2c(F)cccc2OC)=NC3)ccc1C(=O)O | ZAP70 | kinase activity | 1 µM |  | 105% |
| COc1cc(-c2oc3cc(O)ccc3c(=O)c2O)ccc1O | DCLRE1A | exonuclease activity, inhibitor, fluorescence HTS | 10 µM, 80 min, together with: 8 nM 5P-FQ substrate |  | 47.4% |
| C[C@H]1[C@H](OC(=O)CCC(=O)O)O[C@@H]2O[C@@]3(C)CC[C@H]4[C@H](C)CC[C@@H]1[C@@]24OO3 | Non-structural polyprotein pORF1, RNA-dependent RNA polymerase (Hepatitis E virus genotype 1, UniProt P33424) | polymerase activity, inhibitor, colorimetric | 4.8 µM | baseline: solvent control | 61.6% |
| O=C([O-])c1ccccc1-c1c2cc(I)c(=O)c(I)c-2oc2c(I)c([O-])c(I)cc12.[Na+].[Na+] | DCLRE1A | exonuclease activity, inhibitor, fluorescence HTS | 10 µM, 80 min, together with: 8 nM 5P-FQ substrate | baseline: high and low controls | 51.7% |
| O=C1NC(=O)/C(=C/c2ccc(-c3ccc(F)cc3O)o2)S1 | EPHB1 | enzyme activity | 10 µM |  | 94% |
| O=C1/C(=C/c2ccc(O)c(O)c2)Oc2cc(O)ccc21 | DCLRE1A | exonuclease activity, inhibitor, fluorescence HTS | 10 µM, 80 min, together with: 8 nM 5P-FQ substrate | baseline: high and low controls | 53.2% |
| COc1cc(N2CCN(C)CC2)ccc1Nc1nc(N)n(C(=S)NCc2c(Cl)cccc2Cl)n1 | MAP3K19 | enzyme activity | 10 µM | baseline: control | 0% |
| COc1ccc(F)cc1C(=O)NCc1ccc(-c2nn([C@@H](C)C(F)(F)F)c(N)c2C(N)=O)cc1 | STK26 | kinase activity, inhibitor, HotSpot radiometric | 100 nM, together with: ATP 10 µM |  | 81% |
| COc1cc(N2CCN(C)CC2)ccc1Nc1nc(N)n(C(=O)NCc2c(Cl)cccc2Cl)n1 | Serine/threonine-protein kinase STK11 (STK11, Homo sapiens, UniProt Q15831) | enzyme activity | 10 µM | baseline: control | 5% |
| N#CC(C#N)=C(N)/C(C#N)=C/c1cc(O)c(O)c(O)c1 | DCLRE1A | exonuclease activity, inhibitor, fluorescence HTS | 10 µM, 80 min, together with: 8 nM 5P-FQ substrate |  | 17.3% |
| Cc1ccc(NC(=O)c2ccc(C)c(C(F)(F)F)c2)cc1C#Cc1nn(C2CCC(O)CC2)c2ncnc(N)c12 (stereo not shown) | Pik3cb with p85 beta | enzyme activity, inhibitor | 10 µM, p110b/p85b)(m mouse, together with: ATP 10 µM |  | 93% |
| C[C@@H]1CC[C@@]23CCC4(C)[C@@](C=CC5[C@@]6(C)CCC(=O)C(C)(C)C6CC[C@]54C)(OC2=O)C3[C@H]1C (stereo partly shown) | DCLRE1A | exonuclease activity, inhibitor, fluorescence HTS | 10 µM, 80 min, together with: 8 nM 5P-FQ substrate |  | 42% |
| NC/C(=C\F)COc1cccc(Cn2c(=S)[nH]c(=O)c3[nH]cnc32)c1 | Myeloperoxidase (MPO, Homo sapiens, UniProt P05164) | H2O2 consumption, H2O2-specific electrode | 10 µM | baseline: control | -4.18% |
| CC[C@H](CC[C@@H](C)[C@H]1CC[C@H]2[C@@H]3CC=C4C[C@@H](O)CC[C@]4(C)[C@H]3CC[C@]12C)C(C)C | DCLRE1A | exonuclease activity, inhibitor, fluorescence HTS | 10 µM, 80 min, together with: 8 nM 5P-FQ substrate |  | 20.4% |
| Cc1[nH]c(/C=C2\C(=O)Nc3ccc(F)cc32)c(C)c1C(=O)N[C@H]1CCN(C(=O)N(C)C)C1 | AMPK, rat | kinase activity, KinaseProfiler | 1 µM | baseline: control | 40% |
| Cc1cc2nc3c(=O)[nH]c(=O)nc-3n(C[C@H](O)[C@H](O)[C@H](O)CO)c2cc1C | DCLRE1A | exonuclease activity, inhibitor, fluorescence HTS | 10 µM, 80 min, together with: 8 nM 5P-FQ substrate |  | 44.7% |
| O=C(NC1CCC1)c1ccc2nc(-c3cccc(NS(=O)(=O)NCCN4CCCCC4)c3)cn2c1 | MAP3K19 | enzyme activity | 10 µM |  | 28% |
